Experimental data gathered from unrelated publications.
Every numbered part comes from another study and shows a few of its results, in no order. ± gives the spread as reported.

Block 1 — effect on: reporter gene (Gaussia luciferase); action: inhibitor; tested at: 20 µM
Target: Replicase polyprotein 1ab, main protease (rep, Severe acute respiratory syndrome coronavirus 2, UniProt P0DTD1)
Compound	inhibition
C[C@H](NC(=O)CCC(F)(F)F)C(=O)N[C@@H]1C(=O)N(CCO)c2ncccc2-c2ccccc21	-0.165%
CC[C@H](C)[C@H](NC(=O)[C@H]([C@@H](C)CC)N(C)C(C)=O)C(=O)N[C@H](C(=O)N[C@@H](CC(C)C)C(=O)[C@@]1(C)CO1)[C@@H](C)O	-4.4%
O=C(Cc1cccc(OC(F)(F)F)c1)Nc1ccc(CCCCc2nnc(NC(=O)Cc3ccccn3)s2)nn1	-0.0115%

Mixed results
Molecule	target or system	assay	system	setting	endpoint	result
VNARLRAKHYVYIGD	human CD4 T cells	AIM	peptide		responding donors	8%
Cn1cnc(Cn2c(=O)[nH]/c(=N\c3cc4cn(C)nc4cc3Cl)n(Cc3cc(F)c(F)cc3F)c2=O)n1			human, severe renal impairment	oral, 375 mg	any TEAE, severe severity	0%
CC[C@H](C)[C@H](NC(=O)[C@H](CC(C)C)NC(=O)[C@H](Cc1c[nH]c2ccccc12)NC(=O)[C@H](CCC(N)=O)NC(=O)[C@@H](NC(=O)[C@H](Cc1ccccc1)NC(=O)[C@H](C)NC(=O)[C@H](CCCCNC(=O)COCCOCCNC(=O)COCCOCCNC(=O)CC[C@H](NC(=O)CCCCCCCCCCCCCCCCCCC(=O)O)C(=O)O)NC(=O)[C@H](CCC(N)=O)NC(=O)[C@H](C)NC(=O)[C@@H](NC(=O)[C@H](CCCCN)NC(=O)[C@H](CC(=O)O)NC(=O)[C@H](CC(C)C)NC(=O)C(C)(C)NC(=O)[C@@H](NC(=O)[C@H](CO)NC(=O)[C@H](Cc1ccc(O)cc1)NC(=O)[C@H](CC(=O)O)NC(=O)[C@H](CO)NC(=O)[C@@H](NC(=O)[C@H](Cc1ccccc1)NC(=O)[C@@H](NC(=O)CNC(=O)[C@H](CCC(=O)O)NC(=O)C(C)(C)NC(=O)[C@@H](N)Cc1ccc(O)cc1)[C@@H](C)O)[C@@H](C)O)[C@@H](C)CC)[C@@H](C)CC)C(C)C)C(=O)N[C@@H](C)C(=O)NCC(=O)NCC(=O)N1CCC[C@H]1C(=O)N[C@@H](CO)C(=O)N[C@@H](CO)C(=O)NCC(=O)N[C@@H](C)C(=O)N1CCC[C@H]1C(=O)N1CCC[C@H]1C(=O)N1CCC[C@H]1C(=O)N[C@@H](CO)C(N)=O			healthy subjects, single ascending dose	1.0 mg, baseline	serum AST	22.2 ± 5.4 U/L
TFGGPSDSTGSNQNG	human CD4 T cells	AIM	peptide		responding donors	6%
Nc1ncnc2c([C@@H]3N[C@H](CO)[C@@H](O)[C@H]3O)c[nH]c12	Marburg virus	viral replication, antibody staining	HeLa, Musoke	25 µM, 24 h	infected cells	4.6%

Some of these lines once more (block 1):
Compound	inhibition
O=C(Cc1cccc(OC(F)(F)F)c1)Nc1ccc(CCCCc2nnc(NC(=O)Cc3ccccn3)s2)nn1	-0.0115%
